Measured values pooled from the literature.
Every numbered part comes from another study and shows a few of its results, in no order. “And” joins repeats or separate records; there may be more than shown.
UniProt P51956, sequence (whole entry, looked up): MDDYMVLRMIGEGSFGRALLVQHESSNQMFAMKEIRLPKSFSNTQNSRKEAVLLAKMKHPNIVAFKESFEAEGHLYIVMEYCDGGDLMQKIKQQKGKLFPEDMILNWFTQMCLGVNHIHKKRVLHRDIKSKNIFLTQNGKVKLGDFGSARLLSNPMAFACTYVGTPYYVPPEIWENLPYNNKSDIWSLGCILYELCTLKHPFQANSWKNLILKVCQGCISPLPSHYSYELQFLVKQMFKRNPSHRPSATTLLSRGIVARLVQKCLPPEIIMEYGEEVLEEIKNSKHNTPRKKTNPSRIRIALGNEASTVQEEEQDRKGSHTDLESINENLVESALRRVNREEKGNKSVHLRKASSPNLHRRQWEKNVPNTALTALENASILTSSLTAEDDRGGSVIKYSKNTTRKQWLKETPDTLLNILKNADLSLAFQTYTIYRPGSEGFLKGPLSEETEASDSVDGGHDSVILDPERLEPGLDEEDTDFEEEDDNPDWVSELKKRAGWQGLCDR
UniProt P42681, sequence (whole entry, looked up): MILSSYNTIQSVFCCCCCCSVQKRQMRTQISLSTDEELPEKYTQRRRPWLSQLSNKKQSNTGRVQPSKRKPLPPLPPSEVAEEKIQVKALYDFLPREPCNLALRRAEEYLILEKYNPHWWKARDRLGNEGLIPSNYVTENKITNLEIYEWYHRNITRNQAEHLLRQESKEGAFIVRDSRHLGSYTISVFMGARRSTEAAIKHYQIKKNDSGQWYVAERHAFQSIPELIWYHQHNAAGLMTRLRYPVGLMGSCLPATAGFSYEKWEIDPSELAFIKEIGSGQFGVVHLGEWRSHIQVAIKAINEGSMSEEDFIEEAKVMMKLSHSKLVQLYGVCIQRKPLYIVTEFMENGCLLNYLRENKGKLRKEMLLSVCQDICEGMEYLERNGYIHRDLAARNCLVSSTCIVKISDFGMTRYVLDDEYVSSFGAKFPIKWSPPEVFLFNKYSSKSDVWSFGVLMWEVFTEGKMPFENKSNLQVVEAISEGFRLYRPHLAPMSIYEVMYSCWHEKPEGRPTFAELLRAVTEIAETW
UniProt P21802, sequence (whole entry, looked up): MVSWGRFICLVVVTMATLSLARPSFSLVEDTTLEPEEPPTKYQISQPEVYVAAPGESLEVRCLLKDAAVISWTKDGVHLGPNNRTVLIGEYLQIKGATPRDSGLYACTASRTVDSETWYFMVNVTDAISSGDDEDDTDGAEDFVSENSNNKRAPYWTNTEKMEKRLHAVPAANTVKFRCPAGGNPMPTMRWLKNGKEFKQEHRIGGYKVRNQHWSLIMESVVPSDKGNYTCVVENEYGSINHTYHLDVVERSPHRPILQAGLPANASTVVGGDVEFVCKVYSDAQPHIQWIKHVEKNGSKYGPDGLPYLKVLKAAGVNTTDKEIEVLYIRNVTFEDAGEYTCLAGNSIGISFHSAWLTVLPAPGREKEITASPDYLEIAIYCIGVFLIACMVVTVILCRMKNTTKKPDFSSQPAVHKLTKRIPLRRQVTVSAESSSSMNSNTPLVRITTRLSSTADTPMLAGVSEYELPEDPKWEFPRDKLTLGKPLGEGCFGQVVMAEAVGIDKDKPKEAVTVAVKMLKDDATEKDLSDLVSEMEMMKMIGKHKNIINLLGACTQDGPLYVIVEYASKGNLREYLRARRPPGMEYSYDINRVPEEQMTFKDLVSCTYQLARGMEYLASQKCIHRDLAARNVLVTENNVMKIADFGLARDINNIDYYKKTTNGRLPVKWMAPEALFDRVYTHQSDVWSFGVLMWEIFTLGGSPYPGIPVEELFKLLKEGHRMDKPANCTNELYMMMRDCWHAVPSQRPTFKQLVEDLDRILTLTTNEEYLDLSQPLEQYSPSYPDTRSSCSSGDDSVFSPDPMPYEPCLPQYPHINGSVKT
UniProt O14733, sequence (whole entry, looked up): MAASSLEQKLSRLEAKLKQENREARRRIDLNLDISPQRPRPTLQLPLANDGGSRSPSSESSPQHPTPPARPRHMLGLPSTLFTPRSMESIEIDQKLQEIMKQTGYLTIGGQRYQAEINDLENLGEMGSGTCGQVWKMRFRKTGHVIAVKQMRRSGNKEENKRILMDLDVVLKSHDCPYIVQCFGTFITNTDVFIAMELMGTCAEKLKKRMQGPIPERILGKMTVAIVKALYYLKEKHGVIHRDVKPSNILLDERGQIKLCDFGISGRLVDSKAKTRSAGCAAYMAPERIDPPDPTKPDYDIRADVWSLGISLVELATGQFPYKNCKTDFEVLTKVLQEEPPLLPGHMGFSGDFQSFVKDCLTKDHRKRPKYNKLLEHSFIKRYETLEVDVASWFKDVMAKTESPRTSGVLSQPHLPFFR
UniProt P49761, sequence (whole entry, looked up): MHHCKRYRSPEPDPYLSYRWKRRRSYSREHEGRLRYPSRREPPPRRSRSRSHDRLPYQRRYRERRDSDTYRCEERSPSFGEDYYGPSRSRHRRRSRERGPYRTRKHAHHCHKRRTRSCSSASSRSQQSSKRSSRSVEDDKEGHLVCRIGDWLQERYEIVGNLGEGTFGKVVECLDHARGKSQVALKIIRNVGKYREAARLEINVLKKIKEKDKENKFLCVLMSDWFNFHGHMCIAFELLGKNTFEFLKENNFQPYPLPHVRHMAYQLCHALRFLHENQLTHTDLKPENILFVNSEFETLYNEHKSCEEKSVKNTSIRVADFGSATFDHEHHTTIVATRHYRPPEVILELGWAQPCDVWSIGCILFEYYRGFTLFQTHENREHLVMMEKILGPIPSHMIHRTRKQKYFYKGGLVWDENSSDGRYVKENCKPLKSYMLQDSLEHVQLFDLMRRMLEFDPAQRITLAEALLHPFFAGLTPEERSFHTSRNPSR
UniProt Q9Y5S2, sequence (whole entry, looked up): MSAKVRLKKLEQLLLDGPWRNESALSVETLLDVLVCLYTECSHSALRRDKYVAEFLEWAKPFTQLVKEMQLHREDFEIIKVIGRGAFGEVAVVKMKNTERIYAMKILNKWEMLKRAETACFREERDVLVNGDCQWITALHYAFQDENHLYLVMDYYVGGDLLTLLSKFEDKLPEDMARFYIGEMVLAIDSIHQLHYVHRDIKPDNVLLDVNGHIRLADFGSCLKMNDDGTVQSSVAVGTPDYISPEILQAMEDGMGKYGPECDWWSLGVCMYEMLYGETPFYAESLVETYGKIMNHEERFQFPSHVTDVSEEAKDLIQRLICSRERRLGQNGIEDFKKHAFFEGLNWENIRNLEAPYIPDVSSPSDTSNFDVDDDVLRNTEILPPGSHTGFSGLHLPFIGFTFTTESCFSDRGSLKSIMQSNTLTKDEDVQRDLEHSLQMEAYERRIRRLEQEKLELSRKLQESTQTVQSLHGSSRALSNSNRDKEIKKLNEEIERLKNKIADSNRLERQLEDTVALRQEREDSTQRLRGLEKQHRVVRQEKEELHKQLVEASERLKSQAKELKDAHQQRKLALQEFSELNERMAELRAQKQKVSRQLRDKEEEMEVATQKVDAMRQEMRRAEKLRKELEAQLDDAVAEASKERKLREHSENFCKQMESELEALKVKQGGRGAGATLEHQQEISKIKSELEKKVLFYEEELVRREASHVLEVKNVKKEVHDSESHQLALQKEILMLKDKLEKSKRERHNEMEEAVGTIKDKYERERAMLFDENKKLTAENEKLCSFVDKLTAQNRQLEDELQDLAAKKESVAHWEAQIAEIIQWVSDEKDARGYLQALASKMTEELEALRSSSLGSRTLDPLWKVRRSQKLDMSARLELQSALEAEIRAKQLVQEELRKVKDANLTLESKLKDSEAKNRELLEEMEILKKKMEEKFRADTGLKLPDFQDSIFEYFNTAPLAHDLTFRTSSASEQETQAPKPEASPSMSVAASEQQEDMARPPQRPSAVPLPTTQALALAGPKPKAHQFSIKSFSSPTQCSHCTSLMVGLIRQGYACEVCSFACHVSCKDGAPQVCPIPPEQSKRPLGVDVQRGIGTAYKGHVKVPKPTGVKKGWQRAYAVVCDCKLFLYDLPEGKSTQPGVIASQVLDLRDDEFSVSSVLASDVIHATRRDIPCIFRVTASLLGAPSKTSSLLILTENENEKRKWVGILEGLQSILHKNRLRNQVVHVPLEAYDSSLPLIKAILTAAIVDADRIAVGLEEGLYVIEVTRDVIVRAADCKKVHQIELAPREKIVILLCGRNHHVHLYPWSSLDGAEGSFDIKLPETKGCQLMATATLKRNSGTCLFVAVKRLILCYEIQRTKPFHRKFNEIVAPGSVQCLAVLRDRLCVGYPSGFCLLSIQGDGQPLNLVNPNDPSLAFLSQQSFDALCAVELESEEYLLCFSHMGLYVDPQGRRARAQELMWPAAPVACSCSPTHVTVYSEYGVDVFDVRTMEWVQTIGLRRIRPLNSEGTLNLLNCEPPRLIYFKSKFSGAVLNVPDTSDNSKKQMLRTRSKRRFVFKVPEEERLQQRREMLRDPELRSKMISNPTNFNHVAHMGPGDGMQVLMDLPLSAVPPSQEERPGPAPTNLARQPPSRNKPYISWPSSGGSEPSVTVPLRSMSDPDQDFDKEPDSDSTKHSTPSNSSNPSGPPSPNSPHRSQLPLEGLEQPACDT
UniProt Q16566, sequence (whole entry, looked up): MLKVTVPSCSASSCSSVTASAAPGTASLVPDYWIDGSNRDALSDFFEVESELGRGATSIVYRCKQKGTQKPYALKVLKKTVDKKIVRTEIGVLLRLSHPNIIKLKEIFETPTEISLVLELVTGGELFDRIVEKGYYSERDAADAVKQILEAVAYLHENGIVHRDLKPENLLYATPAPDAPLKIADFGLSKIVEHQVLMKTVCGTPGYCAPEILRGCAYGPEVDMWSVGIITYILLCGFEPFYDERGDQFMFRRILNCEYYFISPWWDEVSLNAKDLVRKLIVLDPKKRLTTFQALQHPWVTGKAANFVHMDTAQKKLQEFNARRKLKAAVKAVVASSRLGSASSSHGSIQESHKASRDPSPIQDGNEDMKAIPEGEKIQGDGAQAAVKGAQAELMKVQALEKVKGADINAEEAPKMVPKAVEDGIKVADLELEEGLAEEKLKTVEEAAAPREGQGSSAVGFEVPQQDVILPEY

Set 1
SMILES: Cn1nc(C(F)(F)F)cc1-c1cnc(N2CCc3cc(S(=O)(=O)Nc4c(F)cc(Cl)cc4F)cc(N4CCCC4=O)c32)nc1
Read-out: cell-free assay
Technique: competition with immobilised ligand
Tested at: 1 µM
It gave 80% for remaining binding (NEK10 (Homo sapiens, UniProt Q6ZWH5)).
The remaining binding was 98% (MAP2K7 (Homo sapiens, UniProt O14733)).
The remaining binding was 73% (Tyrosine-protein kinase ABL1, non-phosphorylated (ABL1, Homo sapiens, UniProt P00519)).
For FGFR2 (Homo sapiens, UniProt P21802): remaining binding read 100%.
TAOK1 (Homo sapiens, UniProt Q7L7X3) — remaining binding: 99%.
The remaining binding was 75% (CAMK2A (Homo sapiens, UniProt Q9UQM7)).

Set 2
Structure (SMILES): COc1cc(C(=O)N2CCC(N3CCN(C)CC3)CC2)ccc1Nc1ncc2c(n1)N(C)c1ccccc1C(=O)N2C
It gave -22.2% for inhibition (MAP2K4 (mouse); probe labelling, KiNativ, refers to: DIkPSNILLDR peptide, LYS2 site; brain tissue lysate (mouse); 1 µM, with: ADP acyl-phosphate probe).
For INSR (mouse); probe labelling, KiNativ ADP probe; mouse brain lysate; 0.1 µM, LYS1 labelled site: inhibition read 14%.
The inhibition was -8.8% (human PBMC; probe labeling, inhibitor, KiNativ profiling, refers to: WQGNDIVVkVLK; cell lysate; 1 µM, LYS1 site, with: ATP acyl-phosphate probe).
The inhibition was -16.1% (mouse MER and TYRO3; probe labelling, KiNativ ADP probe; mouse brain lysate; 0.1 µM).
For TNIK (human); probe labelling, KiNativ, refers to: Lys1 site peptide; PBMC lysate (human); 0.1 µM, with: ATP acyl-phosphate probe: inhibition read 10.2%.
human PBMC; probe labeling, inhibitor, KiNativ profiling, refers to: DTGHVYAMkILR; cell lysate; 1 µM, LYS1 site, with: ATP acyl-phosphate probe — inhibition: 4.9%.
For ULK3 human; KiNativ profiling; human PBMC; 0.1 µM, LYS2 site, with: ATP acyl phosphate probe: inhibition read 18.4%.
The inhibition was -5.4% (mouse ROCK1 and ROCK2; probe labelling, KiNativ ATP probe; mouse brain lysate; 0.1 µM, LYS2 site DVkPDNMLLDK).

Set 3
SMILES: O=C1NC(=O)c2c1c1c3ccccc3[nH]c1n1cncc21
Read-out: enzyme activity
Mode: inhibitor
Tested at: 0.5 µM
Relative to: control
It gave 94.5% for remaining activity (MAPK11 (Homo sapiens, UniProt Q15759)).
The remaining activity was 94.8% (CDC42BPB (Homo sapiens, UniProt Q9Y5S2)).
The remaining activity was 121% (AKT2 (Homo sapiens, UniProt P31751)).
The remaining activity was 93.4% (MET (Homo sapiens, UniProt P08581)).
The remaining activity was 34.7% (MARK2 (Homo sapiens, UniProt Q7KZI7)).
The remaining activity was 89.3% (NEK3 (Homo sapiens, UniProt P51956)).
The remaining activity was 76.4% (TXK (Homo sapiens, UniProt P42681)).
PRKG2 (Homo sapiens, UniProt Q13237) — remaining activity: 64.1%.
The remaining activity was 89.8% (CAMK4 (Homo sapiens, UniProt Q16566)).
For DDR2 (Homo sapiens, UniProt Q16832): remaining activity read 96.5%.
For KDR (Homo sapiens, UniProt P35968): remaining activity read 66.6%.
CLK3 (Homo sapiens, UniProt P49761) — remaining activity: 48.2%.
The remaining activity was 125% (MAPK1 (Homo sapiens, UniProt P28482)).

Set 4
Cell line: mouse MPNST tumor cells
Technique: high-content nuclear imaging
Refers to: cell number
Tested at: 10 µM
Time: 12 h
Notes: mean of 2 replicates
Relative to: plate mean
Direction: higher = more cells
`CC(=O)N[C@@H](CC(C)C)C(=O)O` gave a nuclei count of 1.53 z-score.
For `C[C@]1(Cn2ccnn2)[C@H](C(=O)O)N2C(=O)C[C@H]2S1(=O)=O`, the nuclei count was 0.234 z-score.
The nuclei count of `COc1ccc(N2CCN(C(=O)c3cc4c(s3)-c3ccccc3S(=O)(=O)C4)CC2)cc1` is reported as 2.38 z-score.
With `CCOC(=O)[C@H](CCc1ccccc1)N[C@@H](C)C(=O)N1[C@H](C(=O)O)C[C@@H]2CCC[C@@H]21` the nuclei count was 0.054 z-score and 1.18 z-score.
`CC(=O)O[C@]1(C(C)=O)CC[C@H]2[C@@H]3CCC4=CC(=O)CCC4=C3[C@@H](c3ccc(N(C)C)cc3)C[C@@]21C` has a nuclei count of 4.27 z-score.
The nuclei count of `C[C@H]1CC(=O)Nc2cc(C(=O)NCCC3CC3)ccc2N1C(=O)N1CC2CC2C1` (stereo partly shown) is reported as 0.903 z-score.
The nuclei count of `CCN(CC)CCOC(=O)C(c1ccccc1)c1ccccc1` is reported as 0.953 z-score.

A few entries again (set 4):
The nuclei count of `COc1ccc(N2CCN(C(=O)c3cc4c(s3)-c3ccccc3S(=O)(=O)C4)CC2)cc1` is reported as 2.38 z-score.
With `CCOC(=O)[C@H](CCc1ccccc1)N[C@@H](C)C(=O)N1[C@H](C(=O)O)C[C@@H]2CCC[C@@H]21` the nuclei count was 0.054 z-score and 1.18 z-score.
`CC(=O)O[C@]1(C(C)=O)CC[C@H]2[C@@H]3CCC4=CC(=O)CCC4=C3[C@@H](c3ccc(N(C)C)cc3)C[C@@]21C` has a nuclei count of 4.27 z-score.
The nuclei count of `C[C@H]1CC(=O)Nc2cc(C(=O)NCCC3CC3)ccc2N1C(=O)N1CC2CC2C1` (stereo partly shown) is reported as 0.903 z-score.
The nuclei count of `CCN(CC)CCOC(=O)C(c1ccccc1)c1ccccc1` is reported as 0.953 z-score.
